Measurements from different studies.
Each line is one published result; not all experiments were run side by side. ± gives the spread as reported. Values after ≈ are worked out from the molar mass of the structure shown.
UniProt P45983, sequence (whole entry, looked up): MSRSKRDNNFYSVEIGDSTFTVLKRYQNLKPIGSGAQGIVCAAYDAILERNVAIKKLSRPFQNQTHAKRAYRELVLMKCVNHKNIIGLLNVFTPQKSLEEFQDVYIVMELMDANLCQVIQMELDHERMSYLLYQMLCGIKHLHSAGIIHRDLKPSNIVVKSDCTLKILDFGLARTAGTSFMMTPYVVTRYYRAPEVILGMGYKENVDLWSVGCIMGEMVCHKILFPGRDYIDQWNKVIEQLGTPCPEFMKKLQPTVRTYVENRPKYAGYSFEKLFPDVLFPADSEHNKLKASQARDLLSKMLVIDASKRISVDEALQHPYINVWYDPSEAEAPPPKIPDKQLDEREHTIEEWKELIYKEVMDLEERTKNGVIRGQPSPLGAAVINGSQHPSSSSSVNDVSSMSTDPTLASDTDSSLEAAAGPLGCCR

SMILES	tested on	test	test system	conditions	quantity	result
CCOc1c([C@H](C)n2nc(C)c3c(N)ncnc32)cc(Cl)c(F)c1[C@@H]1CNC(=O)C1			patients, monotherapy	oral, 10 mg once daily, cycle 1 day 15	half-life	9.9 ± 1.9 h
Cc1ccc(N=Nc2c(N)nn3c(-c4ccc(Cl)cc4Cl)cc(-c4ccc(OCc5ccccc5)cc4)nc23)cc1	Enterococcus faecalis	broth microdilution	MTCC 0459		MBC	31.3 µg/mL (≈ 54 µM)
CCc1ccc(NC(=O)Cn2cc(COc3ccc(-c4nc5ccccc5c(=O)n4Nc4ccc([N+](=O)[O-])cc4[N+](=O)[O-])cc3OC)nn2)cc1	mushroom tyrosinase	enzyme activity		40 µM, with: L-DOPA	inhibition	58.7 ± 7.51%
O=C(O)c1cn(Cc2ccc(C(F)(F)F)cc2)c2ccc(Oc3ccccc3)cc2c1=O	MCF10			72 h	CC50	32.5 ± 8.36 µM
Cc1ccc(N=Nc2c(N)nn3c(-c4ccco4)cc(-c4ccc(OCc5ccccc5)cc4)nc23)cc1	Saccharomyces cerevisiae	broth microdilution	ATCC 9763		MFC/MIC ratio	4
O=C(Nc1cc(-c2ccc(Cl)cc2)[nH]n1)C1CCCCC1	MAPK8 (Homo sapiens, UniProt P45983)	enzyme activity, Dundee kinase panel		10 µM	remaining activity	98%
COc1cc([N+](=O)[O-])ccc1NC(=O)Cn1cc(COc2ccc(-c3nc4ccccc4c(=O)n3Nc3ccc([N+](=O)[O-])cc3[N+](=O)[O-])cc2OC)nn1	mushroom tyrosinase	enzyme activity		40 µM, with: L-DOPA	inhibition	33.5 ± 1.91%

Repeated from above:
SMILES	tested on	test	test system	conditions	quantity	result
Cc1ccc(N=Nc2c(N)nn3c(-c4ccco4)cc(-c4ccc(OCc5ccccc5)cc4)nc23)cc1	Saccharomyces cerevisiae	broth microdilution	ATCC 9763		MFC/MIC ratio	4
